Assay results from different studies.
Each numbered part is a random draw from the data of one study; scales do not carry over between parts. Substitutions count along the parent as printed.

Block 1
Target: Transcriptional repressor CTCF (CTCF, Homo sapiens, UniProt P49711, residues 1-727, full length assumed)
Technique: protein-binding microarray
Molecule type: double-stranded DNA, one strand shown
Medium: in vitro
Concentration: not given
Setting: k-mer, scored over probes, only values ≥0.25
Reading: higher = stronger binding
Construct (chain): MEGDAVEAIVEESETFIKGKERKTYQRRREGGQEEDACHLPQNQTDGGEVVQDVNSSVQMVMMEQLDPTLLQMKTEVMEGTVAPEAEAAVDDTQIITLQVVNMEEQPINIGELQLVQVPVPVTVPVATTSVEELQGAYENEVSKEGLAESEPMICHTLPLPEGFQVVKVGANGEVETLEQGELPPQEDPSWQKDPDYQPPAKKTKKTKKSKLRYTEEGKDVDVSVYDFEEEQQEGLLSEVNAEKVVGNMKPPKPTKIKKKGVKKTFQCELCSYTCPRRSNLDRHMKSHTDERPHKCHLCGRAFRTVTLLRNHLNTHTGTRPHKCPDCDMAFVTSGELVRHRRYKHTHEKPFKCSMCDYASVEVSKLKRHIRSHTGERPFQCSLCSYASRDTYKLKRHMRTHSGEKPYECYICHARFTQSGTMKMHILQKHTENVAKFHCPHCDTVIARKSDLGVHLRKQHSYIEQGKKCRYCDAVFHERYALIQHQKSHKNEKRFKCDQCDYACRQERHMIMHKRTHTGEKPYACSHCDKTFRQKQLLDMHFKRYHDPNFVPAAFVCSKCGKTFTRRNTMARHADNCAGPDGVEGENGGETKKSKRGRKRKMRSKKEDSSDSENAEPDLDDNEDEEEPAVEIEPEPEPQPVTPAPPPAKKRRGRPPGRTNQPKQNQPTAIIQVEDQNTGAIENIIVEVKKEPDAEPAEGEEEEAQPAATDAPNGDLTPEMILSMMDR
Oligonucleotide | E-score
ATATATGG | 0.393
ACAAATGC | 0.262
ATGTTGTA | 0.298
ATATATTA | 0.403
CGCGCGTC | 0.311
GCGCAAGA | 0.277
GAATTTTA | 0.28
CGATTATA | 0.255

Block 2
Target: ABI1, truncated, D143A, DHFR fusion (Arabidopsis thaliana)
Technique: DHFR PCA, deep sequencing
Medium: yeast
Setting: methotrexate growth selection, single substitutions
Added: (+)-ABA 0.11 µM
Reference: wild-type fitted maximum
Reading: higher = stronger binding
Parent: PYL1, truncated, DHFR fusion (Arabidopsis thaliana); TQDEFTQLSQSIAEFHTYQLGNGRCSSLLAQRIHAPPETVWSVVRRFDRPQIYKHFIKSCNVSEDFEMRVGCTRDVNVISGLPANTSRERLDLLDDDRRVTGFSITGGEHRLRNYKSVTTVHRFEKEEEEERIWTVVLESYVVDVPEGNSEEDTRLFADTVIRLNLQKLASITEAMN
Variant | relative binding score
E151K | 41.5%
N149K | 3.74%
I57K | -0.945%
L164V | 17.8%
Q7D | 29%
R111P | 19%
V136D | -1.21%

Other studies, line by line
Molecule | tested on | test | system | conditions | how to read | measurement | value
EDLLKELQKQLEE | Saccharomyces cerevisiae | binding, competitive growth deep sequencing | peptide, cyclin E1-Cln2 fusion strain | concentration not given, Cln2 score subtracted | direction not given | growth enrichment score | 0.0265
PhoQ, residues 284 288 289 292 302 303 ALSMDL | PhoP, residues 12 14 15 18 19 SMASL (Escherichia coli, UniProt P23836) | Sort-seq, measured: YFP reporter | E. coli | PhoQ-PhoP variant library, added: 10 µM Mg2+ | reference: high Mg2+ state, higher = stronger signaling | fold induction | 5.78

A few entries again (other studies, line by line):
Molecule | tested on | test | system | conditions | how to read | measurement | value
EDLLKELQKQLEE | Saccharomyces cerevisiae | binding, competitive growth deep sequencing | peptide, cyclin E1-Cln2 fusion strain | concentration not given, Cln2 score subtracted | direction not given | growth enrichment score | 0.0265
PhoQ, residues 284 288 289 292 302 303 ALSMDL | PhoP, residues 12 14 15 18 19 SMASL (Escherichia coli, UniProt P23836) | Sort-seq, measured: YFP reporter | E. coli | PhoQ-PhoP variant library, added: 10 µM Mg2+ | reference: high Mg2+ state, higher = stronger signaling | fold induction | 5.78
